Measured values from different studies.
Parts stem from different laboratories: compare values within a part only. Changes are numbered by the printed parent chain.

Study 1 — target: CCNA2, cyclin fold, Cln2 fusion (human); technique: yeast growth competition, sequencing; sample: yeast; setting: strong parent motif; reference: not given; direction: higher = stronger binding
Parent: BRCA2 docking peptide (human); PSIKRNLLNEFDR; partner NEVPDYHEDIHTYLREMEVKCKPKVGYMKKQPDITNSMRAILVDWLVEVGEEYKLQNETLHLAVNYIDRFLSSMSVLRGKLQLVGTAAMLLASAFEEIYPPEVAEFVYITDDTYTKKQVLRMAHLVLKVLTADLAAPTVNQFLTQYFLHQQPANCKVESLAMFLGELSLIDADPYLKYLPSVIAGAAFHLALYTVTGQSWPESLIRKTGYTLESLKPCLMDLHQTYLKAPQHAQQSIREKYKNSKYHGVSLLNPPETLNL
| Change | normalised enrichment score |
| --- | --- |
| I3Q | -0.658 |
| R13C | 3.79 |
| I3V | 6.08 |
| I3G | 3.79 |
| N6I | 1.67 |
| N9I | 5.52 |
| S2H | 4.27 |
| L8C | 3.89 |
| N6V | 2.79 |
| R13S | 5.39 |
| S2Q | 4.95 |
| F11G | 2.14 |
| K4H | 3.36 |
| S2M | 4.58 |
| L7C | 0.101 |
| F11M | 2.2 |
| K4V | 4.66 |
| E10H | 2.15 |
| D12M | 5.12 |
| R5M | 1.03 |
| K4E | 0.572 |
| P1V | 5.5 |
| K4C | 5.68 |
| N6D | 2.51 |
| S2G | 4.83 |

Study 2 — technique: RNA Bind-n-Seq; molecule type: RNA; sample: in vitro; concentration: 365 nM; reference: no-protein control; direction: higher = stronger binding
Target: RNA binding protein fox-1 homolog 2, RRM domain, GST-SBP tag (RBFOX2, Homo sapiens, UniProt O43251-10, residues 100-194)
Setting: natural RNA segment, single round, ends assumed
| Sequence | RBNS enrichment (R) |
| --- | --- |
| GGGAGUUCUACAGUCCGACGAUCUGUAUGCACAGAGCAGACAGACUAAUGGAUCUCUGUUUUCUGCCAGUCAUCAGUGUGCCCUUGAAGCUAAGAGGGGAUUCCAGCCCAGGAAACGUCCCUAGGUAGGCUUGUGGAAUUCUCGGGUGCCAA | 0.769 |
| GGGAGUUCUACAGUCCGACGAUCCAGCUCUGGCUCCCGAAGGGGCAAAGCAGCCUCCUGUUUACAGAAGGUCCACGCGAGCUAUCCCCGUGGCGUUACGAAUGCAGCCAGCGCCCGGCGUUUGUGCAGGGGUGUGGAAUUCUCGGGUGCCAA | 0.709 |
| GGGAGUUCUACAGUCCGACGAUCUGCAGGGAGGCCAUGCCCGCCACCCCUCUUGUUCUGGAUCCCUGCUCCCCUCUGGGUGUGUGGGUGUGUGUGUACGUUUGGGUGUGUGUGUAUGCGCGUGUGUGCGUGUGUGGAAUUCUCGGGUGCCAA | 0.874 |
| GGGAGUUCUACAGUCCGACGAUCGUAAGUCUUGUAAGUCUAAUGUGGCUAUCCUACUCUUUUGGGCAAUGCAUGUAUUAUGCAUUGGAAAGGUAUUUUUUUUAAGUUCUGUUGGCUAGCUAUGGUUUUCAGUAUGGAAUUCUCGGGUGCCAA | 2.01 |
| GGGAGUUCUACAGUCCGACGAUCCUCCUCACUAGCUCCAAUGUUCCCAUGUUUCCAUUUGUGUGUCUUAUACGUGUAUGUGUGCCCUCUCCUUACAUACACACCCUGGAAUAGAGUUCUCACACCGUUCAAUUUGGAAUUCUCGGGUGCCAA | 1.04 |
| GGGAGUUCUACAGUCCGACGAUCAAACUGAAUCGUGGGUGCAUUUCAGAAGAGAACGUUCCAUAUAAUGCAGCUAACCAAGGACUCCUGUGUUUCUAUAAGCUAAUGCUCCAGAAACUUUGCCAACCUGUUAGUGGAAUUCUCGGGUGCCAA | 1.02 |
| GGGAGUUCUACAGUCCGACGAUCAUGGUUUUUAUAGUUUGUUGAUAAAGUGGACACAGUAUUGUCUGAGCAGUUAUAUUUUAAUGCAUUUCAGUGUUUAUAGUAGAAGUUUAGUGGAUAAAACUUUAAGUCCAUGGAAUUCUCGGGUGCCAA | 0.509 |
| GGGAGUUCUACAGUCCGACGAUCAUACACAUAAAAUAUAUAUAUGUAUGAUACAUGAAAUAUAUUUAGAAAUGUUCAUAAUUUUAAUGGAUAUCCUUUGGUGUGAAUAAUUGAAUACAGAGUUUUUAAAAUAUUGGAAUUCUCGGGUGCCAA | 0.772 |
| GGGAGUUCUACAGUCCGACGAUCCUACACCGACAAACCGCAGACACGCAGGAUCUGCUCAGAGAUUGCAGAAGAGCGUGGCCUCUCUUAUAGGGAAGAUGUAAUUAUGGAUCAAAGAGUGCUAAGAAAAUUGCUGGAAUUCUCGGGUGCCAA | 0.528 |
| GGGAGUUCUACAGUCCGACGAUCAUUAACUCAGAGGCUCACUACAGAAAUAUGUAAUCAGUGCUGUGCAUCUGUCUGCAGCUAAUGUACCUCCUGGACACCAGGAGGGGAAAAAGCACUUUUUCAAUUGUGCUUGGAAUUCUCGGGUGCCAA | 0.408 |
| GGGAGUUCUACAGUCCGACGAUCAACUAGACCUAGGAUCUCAAAAGUUUUAAAACUUUGACGUUUUCAUAUGUUUGUUUAUUAAUAGGAUUUUAAAAAAAAUGAACAUCUUUUUAAAGCUGGGAAAUGUAUAUUGGAAUUCUCGGGUGCCAA | 0.738 |
| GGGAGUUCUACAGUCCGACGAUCUCUUUUAGGCUUUGUUAACUGAAUGCUCCUCUCCUCCUCCACUGCAUAGUUAAAGCAUGUGUUCACACUGUGUAAACAUUCACAGAAGACUUUUCCUCGUGUGUUGUUGAUGGAAUUCUCGGGUGCCAA | 1.02 |

Study 3 — technique: protein-binding microarray; molecule type: double-stranded DNA, one strand shown; sample: in vitro; concentration: 0.8 µM; setting: whole 60-bp probe, no competitor; direction: higher = stronger binding
Target: Centromere-binding protein 1, full length, N-terminal tag (CBF1, Saccharomyces cerevisiae, UniProt P17106, residues 1-351)
Chain of UniProt P17106 (whole entry, looked up): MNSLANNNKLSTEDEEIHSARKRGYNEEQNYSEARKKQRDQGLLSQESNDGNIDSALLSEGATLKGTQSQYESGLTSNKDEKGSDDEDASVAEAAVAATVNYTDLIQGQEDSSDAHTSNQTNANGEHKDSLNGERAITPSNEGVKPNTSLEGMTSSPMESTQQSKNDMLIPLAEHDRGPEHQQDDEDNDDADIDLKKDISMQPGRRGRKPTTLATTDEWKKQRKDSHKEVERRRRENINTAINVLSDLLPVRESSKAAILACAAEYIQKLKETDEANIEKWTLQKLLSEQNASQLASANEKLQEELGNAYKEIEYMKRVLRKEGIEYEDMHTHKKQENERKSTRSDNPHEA
| Sequence | fluorescence intensity |
| --- | --- |
| TGTACGAAGCTATATCACGATTGTATAGTAGTTAGGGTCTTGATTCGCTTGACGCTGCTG | 528 a.u. |
| CCTAACTACTATATTAGCGTGCTATAGCTTCGTACAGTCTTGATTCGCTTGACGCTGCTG | 537 a.u. |
| GAAAGTATGGCGAAGAACGTGGCGCGCTGGAGTTAGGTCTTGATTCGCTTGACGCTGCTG | 536 a.u. |
| GAAAGATTATTGCATCATGCAATGGGGTAATGTTAGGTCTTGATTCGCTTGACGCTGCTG | 529 a.u. |
| CTAATTGCTGCATTTCCCACCACGTCCTGGTGGTTCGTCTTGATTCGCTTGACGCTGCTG | 486 a.u. |
| CTACCTAAATGACATCACGATGATAAATCCTCCTTCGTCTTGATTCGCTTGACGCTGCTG | 646 a.u. |
| CTAATAACGCCACAGAACGTGATCTGACTATTGTTCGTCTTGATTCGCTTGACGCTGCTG | 2230 a.u. |
| CCTAACTACTATAAACGCACGCAATAGCTTCGTACAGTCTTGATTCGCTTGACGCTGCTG | 522 a.u. |
| CTATCCTACATAAATCATGTGACTTATTTATTTTTCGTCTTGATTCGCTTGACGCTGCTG | 8760 a.u. |
| GAACCTTGAAAACGGCATCAGGATGCACAAAAATAGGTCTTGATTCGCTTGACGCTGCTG | 548 a.u. |
| CTACTTGGTCAGCTTGATGTTACCAGCACCATCTTCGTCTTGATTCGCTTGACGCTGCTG | 523 a.u. |
| CTAATATATATACGTGGTGAAATGAAATGAAAATTCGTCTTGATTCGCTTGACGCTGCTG | 539 a.u. |
| GAATTGATTTTTTTTCACCTGTTCATTTTTTTTTAGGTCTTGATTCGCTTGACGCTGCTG | 580 a.u. |
| CTAAAGCATCTGGATCACCAGTACAAACAGTTATTCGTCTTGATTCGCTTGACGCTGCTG | 539 a.u. |
| GAAGTGGAACAAAGCCACGGGCGGCTGTAACAATAGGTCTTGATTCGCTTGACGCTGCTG | 495 a.u. |
| CCTAACTACTATATTGAGGTGACATAGCTTCGTACAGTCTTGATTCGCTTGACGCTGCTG | 556 a.u. |

Study 4 — technique: protein-binding microarray; molecule type: double-stranded DNA, one strand shown; sample: in vitro; concentration: 2200 nM top; setting: 60-bp whole probe; together with: salmon DNA 0.4 mg/ml; reference: random background probes; direction: higher = stronger binding; constant ends, left off below: GCCTAGCAC … GTCTTGATTCGCTTGACGCTGCTG
Target: Interferon regulatory factor 7, full length, phosphomimetic (IRF7, Homo sapiens, UniProt Q92985, residues 1-503, S471D/S472D/S475D/S476D/S477D/S483D/S484D/S487D)
Construct (chain): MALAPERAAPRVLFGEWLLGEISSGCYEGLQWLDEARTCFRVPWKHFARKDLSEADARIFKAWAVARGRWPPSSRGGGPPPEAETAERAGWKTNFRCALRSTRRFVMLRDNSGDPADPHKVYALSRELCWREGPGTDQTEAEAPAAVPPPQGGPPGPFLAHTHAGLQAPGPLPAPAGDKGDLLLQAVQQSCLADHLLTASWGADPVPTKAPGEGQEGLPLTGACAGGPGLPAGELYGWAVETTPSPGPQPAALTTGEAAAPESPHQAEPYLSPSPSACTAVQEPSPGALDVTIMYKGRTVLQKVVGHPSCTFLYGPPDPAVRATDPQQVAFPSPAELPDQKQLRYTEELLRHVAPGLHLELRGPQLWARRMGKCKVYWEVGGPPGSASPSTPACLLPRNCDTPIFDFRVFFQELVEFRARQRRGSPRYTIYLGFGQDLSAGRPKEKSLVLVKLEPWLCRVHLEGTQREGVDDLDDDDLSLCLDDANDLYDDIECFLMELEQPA
| Sequence | fitted relative affinity [z-score] |
| --- | --- |
| TTAAGTTTCGACACTGGGTTAGTGCTA | 2.95 |
| GACGGTTTCAGACTGGGGACGTGCTAG | 1.13 |
| TTACATCTCAGTTTCGATTAGTGCTAG | 6.58 |
| GAACATATTTGTTTCCATTTGTGCTAG | 3.91 |
| GACGAACTGCTTTTCCTGACGTGCTAG | 0.832 |
| GACGATATCGGGTTCCGAGACGTGCTA | 0.21 |
| CTCTGTCTGGGATGTAATTCCGTGCTA | 0.665 |
| GAGGGACTGGACTATCGGGACGTGCTA | -1.01 |
| TTAGGTTTCGGGTAGCGGTTAGTGCTA | 5.75 |
| GACGATATCGGGACTGGAGGCGTGCTA | -0.419 |
| TTAGGACTTGACTTTCGGTTAGTGCTA | 5.68 |
| TAGTATTTTTTTCCAGAGGGGTGCTAG | 0.405 |
| CACGGTTTCGGGTATCGGGACGTGCTA | 6.09 |
| TTAGATAACGGGTATCGATTAGTGCTA | -0.234 |
| GACGGTATCCTACCGCTGACGTGCTAG | 0.31 |
| TTAGGATTGCTTTTCCTTTAGTGCTAG | 1.62 |
| CTAGGTTTCCTTTTCCTTTAGTGCTAG | 6.97 |
| TTAGGAATGCTACTGCTTTAGTGCTAG | -0.272 |
| GACGATCTCAGACTCGAGACGTGCTAG | 0.0203 |
| GACGCTTTCGACTATCGGGACGTGCTA | 4 |
| TCCTCTTTCACTGGTCCTCATGTGCTA | 2.85 |
| GGCGGTATCGACACTGGGGACGTGCTA | -0.957 |
| TTAGATTTCAGTTCCGACTAGTGCTAG | 1.59 |
| TTAGGTATCGACTAACGGTTAGTGCTA | -0.327 |
| GACGATTTCAGACTGGGGACGTGCTAG | 0.569 |

For quick reference, copied from above (study 4):
| Sequence | fitted relative affinity [z-score] |
| --- | --- |
| TTACATCTCAGTTTCGATTAGTGCTAG | 6.58 |
| GAACATATTTGTTTCCATTTGTGCTAG | 3.91 |
| GACGAACTGCTTTTCCTGACGTGCTAG | 0.832 |
| GACGATATCGGGTTCCGAGACGTGCTA | 0.21 |
| CTCTGTCTGGGATGTAATTCCGTGCTA | 0.665 |
